Results of several laboratories.
Protocols differ between the studies behind these lines. Values joined by “and” are separate records of one study, mostly repeats; a detail may differ. ± gives the spread as reported. In brackets after ≈: the same amount, converted by molar mass.

Compound	organism	test	system	setting	scale	endpoint	value
O=c1[nH]c2scnc2c(=O)n1O	Brassica rapa	–	–	100 mg/mL, 72 h	–	root length inhibition	95%
COC(=O)[C@H](Cc1ccc(O)cc1)NCc1cc2ccccc2nc1SC	Pseudomonas aeruginosa	–	–	32 µg/mL, without pentamidine	reference: control	growth	90.1%
O=c1[nH]c2nc(-c3ccncc3)sc2c(=O)n1O	Brassica rapa	–	–	100 mg/mL, 72 h	–	root length inhibition	73%
CCOc1ccc2cc(-c3nn(CC4CCN(C)CC4)c4ncnc(N)c34)ccc2c1	Neospora caninum	qPCR	sheep foetuses or lambs, mid-pregnancy infection, foetal brain	concentration not given, treated infected group, negatives set to 0.01	–	parasite burden	17.4 tachyzoites/mg tissue and 4.69 tachyzoites/mg tissue and 28.3 tachyzoites/mg tissue and 7.29 tachyzoites/mg tissue and 5.59 tachyzoites/mg tissue
O=c1[nH]c2ncsc2c(=O)n1O	Brassica rapa	–	–	1500 g/ha, 21 days, post-emergence, glasshouse pot	–	growth inhibition	83.8%
Cc1cc(C)c2sc(NC(=O)c3cc4ccccc4o3)nc2n1	Zika virus	cytopathic effect, neutral red uptake	Vero 76, MR766	–	–	EC50	6 µM
COc1ccc(C[C@H](NC(=O)[C@H](C)NC(=O)CN2CCOCC2)C(=O)N[C@@H](Cc2ccccc2)C(=O)C2(C)CO2)cc1 (stereo in doubt)	Plasmodium falciparum	parasite growth	3D7, chloroquine and artemisinin sensitive	72 h, ring stage	–	IC50	0.022 µM and < 0.03 µM
CCc1nc2[nH]c(=O)n(O)c(=O)c2s1	Brassica rapa	–	–	750 g/ha, 21 days, post-emergence, glasshouse pot	–	growth inhibition	0%
CC(=O)Oc1ccccc1C(=O)Nc1ncc([N+](=O)[O-])s1	Cryptosporidium parvum	–	HCT-8	12 x EC90, 0 h	reference: DMSO control	parasite number	96.8% and 109% and 93.3% and 101%
CCCc1cc(=O)c2c(o1)C[C@@H](O)C[C@H]2O	Zika virus	viral replication, CCK-8	Vero C1008	10 µM, 96 h	–	inhibition	12.2 ± 8.98%
O=c1[nH]c2sc(-c3ccccc3)nc2c(=O)n1O	Brassica rapa	–	–	10 mg/mL, 72 h	–	root length inhibition	23%
CCOC(=O)C1=C[C@]2(CC)CCCN3CCc4c(n1c1ccccc41)[C@@H]32	hepatitis B virus	HBsAg secretion, ELISA	HepAD38	5 µM, 0.5% DMSO	reference: vehicle	inhibition	inactive
N=C(N)c1ccc(OCc2ccc(Br)cc2COc2ccc(C(=N)N)cc2)cc1	Escherichia coli	checkerboard	mcr-3 polymyxin-resistant	concentration not given, with: rifampicin	–	MIC of compound in combination	12.5 µg/mL
CCCc1nc2c(=O)n(O)c(=O)[nH]c2s1	Brassica rapa	–	–	10 mg/mL, 72 h	–	root length inhibition	2%
CCn1c(=O)c(-c2cc[nH]n2)cc2c(C)nc(N)nc21	Coxsackievirus B3	viral replication, RT-qPCR	HeLa	concentration not given, 20 h	–	viral RNA level	decreased
CN[C@H](CC(C)C)C(=O)N[C@H]1C(=O)N[C@@H](CC(N)=O)C(=O)N[C@H]2C(=O)N[C@H]3C(=O)N[C@H](C(=O)N[C@H](C(=O)O)c4cc(O)cc(O)c4-c4cc3ccc4O)[C@H](O)c3ccc(c(Cl)c3)Oc3cc2cc(c3O[C@@H]2O[C@H](CO)[C@@H](O)[C@H](O)[C@H]2O[C@H]2C[C@](C)(N)[C@H](O)[C@H](C)O2)Oc2ccc(cc2Cl)[C@H]1O	Enterococcus faecalis	agar dilution	compound-susceptible	74 isolates	–	MIC50	1 µg/mL (≈ 0.69 µM)
CC(C)[C@@H]1NC(=O)[C@@H](CCN)NC(=O)[C@H]([C@@H](C)O)NC(=O)[C@@H](CCCN)NC(=O)[C@H](Cc2ccccc2)NC(=O)[C@@H](Cc2ccccc2)NC1=O	Acanthamoeba castellanii	–	–	trophozoites	–	IC50	12.6 µg/mL
CC1(C)S[C@@H]2[C@H](NC(=O)[C@H](N)c3ccccc3)C(=O)N2[C@H]1C(=O)O	Enterococcus faecalis	agar dilution	vancomycin-intermediate, 20 isolates	–	–	MIC50	> 128 µg/mL
N=C(N)c1ccc(OCCC(CCOc2ccc(C(=N)N)cc2)c2ccccc2)cc1 (stereo not shown)	Escherichia coli	checkerboard	BW25113	synergy at FICI ≤0.5, unit not given, with: novobiocin	lower = stronger synergy	FICI	≤ 0.094

Compound	organism	test	system	setting	scale	endpoint	value
CCOC(=O)c1c(C)nc(NCCCCNc2ccnc3cc(Cl)ccc23)nc1-c1ccccc1	reovirus 1	viral replication	Vero	–	–	EC50	> 100 µM
COC(=O)[C@H](Cc1c[nH]c2ccccc12)NCc1cc2ccccc2nc1OC	Pseudomonas aeruginosa	–	–	128 µg/mL, with: pentamidine 100 µM	reference: control	growth	44.2%
Cc1nc(NCCCCNc2ccnc3cc(Cl)ccc23)nc(-c2ccccc2[N+](=O)[O-])c1C(=O)OC(C)C	reovirus 1	viral replication	Vero	–	–	EC50	> 20 µM
CN[C@H](CC(C)C)C(=O)N[C@H]1C(=O)N[C@@H](CC(N)=O)C(=O)N[C@H]2C(=O)N[C@H]3C(=O)N[C@H](C(=O)N[C@H](C(=O)O)c4cc(O)cc(O)c4-c4cc3ccc4O)[C@H](O)c3ccc(c(Cl)c3)Oc3cc2cc(c3O[C@@H]2O[C@H](CO)[C@@H](O)[C@H](O)[C@H]2O[C@H]2C[C@](C)(N)[C@H](O)[C@H](C)O2)Oc2ccc(cc2Cl)[C@H]1O	Streptococcus pyogenes	–	erythromycin-sensitive, 21 strains	–	–	MIC50	0.25 µg/mL (≈ 0.173 µM)
CC(C)n1ncc2c(C(=O)NCC3(C)CNC3)cc(C3CC3)nc21	Enterovirus D68	viral replication	RD, recombinant wild-type US/MO/14-18947	3 µM	reference: untreated	plaque area	0%
CC(C)[C@@H]1NC(=O)[C@@H](CCCN)NC(=O)[C@H]([C@@H](C)O)NC(=O)[C@@H](CCCN)NC(=O)[C@H](Cc2ccccc2)NC(=O)[C@@H](Cc2ccccc2)NC1=O	Acanthamoeba castellanii	–	–	trophozoites	–	IC90	> 16 µg/mL
O=c1cccc(O)c(O)c1O	hepatitis B virus	viral replication, refers to: plus-strand viral DNA	HepDES19	–	–	EC50	36.6 ± 10.8 µM
CCCc1nc2[nH]c(=O)n(O)c(=O)c2s1	Brassica rapa	–	–	100 mg/mL, 72 h	–	root length inhibition	98%
Cc1cc(OC(C)C)ccc1C(=O)C(C)(C)NC(=O)c1sccc1C	Botrytis cinerea	conidial germination	B05.10	0.03 µg/mL	–	inhibition	11.1 ± 2.9%
Cc1nc(NCCCNc2ccnc3cc(Cl)ccc23)nc(-c2cccc([N+](=O)[O-])c2)c1C(=O)OC(C)C	reovirus 1	viral replication	Vero	–	–	EC50	> 20 µM
N=C(N)c1ccc(OCc2cccc(COc3ccc(C(=N)N)cc3)c2)cc1	Escherichia coli	outer membrane permeabilization	BW25113	60 min, with: NPN 0.01 mM	–	concentration for maximal NPN uptake	3.1 µg/mL
CC(=O)NC[C@H]1CN(c2ccc(N3CCOCC3)c(F)c2)C(=O)O1	Enterococcus faecalis	agar dilution	vancomycin-intermediate, 20 isolates	–	–	MIC50	2 µg/mL (≈ 5.93 µM)
CC(C)[C@@H]1NC(=O)[C@@H](CCCCN)NC(=O)[C@H]([C@@H](C)O)NC(=O)[C@@H](CCCN)NC(=O)[C@H](Cc2ccccc2)NC(=O)[C@@H](Cc2ccccc2)NC1=O	Acanthamoeba castellanii	–	–	trophozoites	–	IC50	> 16 µg/mL
C[C@@H](O)[C@H]1C(=O)N2C(C(=O)O)=C(S[C@@H]3CN[C@H](C(=O)N(C)C)C3)[C@H](C)[C@H]12	Morganella morganii	broth microdilution	clinical isolate RKI 81/15	–	–	MIC	≤ 0.5 µg/mL
CC(=O)N1CCC(C(=O)N2CCN3C(=O)c4cc(-c5ccccc5)ccc4NC(=O)C3C2)CC1 (stereo not shown)	Caenorhabditis elegans	–	N2	3.125 µM	–	mean lifespan	19.2 days
CCCCc1ccc(CNc2nc(N(C)C)nc(N(C)C)c2/N=N/c2ccc(Cl)cc2)cc1	Ostrinia furnacalis	–	corn seedlings	foliar spray, 100 mg/L, 7 days	–	control efficacy	69%
C=C[C@]1(C)C[C@@H](OC(=O)CS[C@@H]2C[C@H]3CC[C@@H](C2)N3C)[C@]2(C)[C@H](C)CC[C@]3(CCC(=O)[C@H]32)[C@@H](C)[C@@H]1O	Enterococcus faecalis	agar dilution	vancomycin-intermediate	20 isolates	–	MIC90	> 128 µg/mL
CO[C@H]1/C=C/O[C@@]2(C)Oc3c(C)c(O)c4c(c3C2=O)C2=NC3(CCN(CC(C)C)CC3)NC2=C(NC(=O)/C(C)=C\C=C\[C@H](C)[C@H](O)[C@@H](C)[C@@H](O)[C@@H](C)[C@H](OC(C)=O)[C@@H]1C)C4=O	Mycobacteroides abscessus	bacterial growth	subsp. massiliense 097 clinical isolate	rough, slow grower	–	IC50	0.949 µM

Excerpt of the above:
Compound	organism	test	system	setting	scale	endpoint	value
CC1(C)S[C@@H]2[C@H](NC(=O)[C@H](N)c3ccccc3)C(=O)N2[C@H]1C(=O)O	Enterococcus faecalis	agar dilution	vancomycin-intermediate, 20 isolates	–	–	MIC50	> 128 µg/mL
CC(=O)NC[C@H]1CN(c2ccc(N3CCOCC3)c(F)c2)C(=O)O1	Enterococcus faecalis	agar dilution	vancomycin-intermediate, 20 isolates	–	–	MIC50	2 µg/mL (≈ 5.93 µM)
Cc1nc(NCCCCNc2ccnc3cc(Cl)ccc23)nc(-c2ccccc2[N+](=O)[O-])c1C(=O)OC(C)C	reovirus 1	viral replication	Vero	–	–	EC50	> 20 µM
CC(C)[C@@H]1NC(=O)[C@@H](CCCCN)NC(=O)[C@H]([C@@H](C)O)NC(=O)[C@@H](CCCN)NC(=O)[C@H](Cc2ccccc2)NC(=O)[C@@H](Cc2ccccc2)NC1=O	Acanthamoeba castellanii	–	–	trophozoites	–	IC50	> 16 µg/mL
C=C[C@]1(C)C[C@@H](OC(=O)CS[C@@H]2C[C@H]3CC[C@@H](C2)N3C)[C@]2(C)[C@H](C)CC[C@]3(CCC(=O)[C@H]32)[C@@H](C)[C@@H]1O	Enterococcus faecalis	agar dilution	vancomycin-intermediate	20 isolates	–	MIC90	> 128 µg/mL
N=C(N)c1ccc(OCCC(CCOc2ccc(C(=N)N)cc2)c2ccccc2)cc1 (stereo not shown)	Escherichia coli	checkerboard	BW25113	synergy at FICI ≤0.5, unit not given, with: novobiocin	lower = stronger synergy	FICI	≤ 0.094
